Experimental data gathered from unrelated publications.
A part holds a random share of what one study measured.

Block 1
Target: Interferon regulatory factor 7, full length, phosphomimetic (IRF7, Homo sapiens, UniProt Q92985, residues 1-503, S471D/S472D/S475D/S476D/S477D/S483D/S484D/S487D)
Sequence of UniProt Q92985 (whole entry, unmodified, looked up): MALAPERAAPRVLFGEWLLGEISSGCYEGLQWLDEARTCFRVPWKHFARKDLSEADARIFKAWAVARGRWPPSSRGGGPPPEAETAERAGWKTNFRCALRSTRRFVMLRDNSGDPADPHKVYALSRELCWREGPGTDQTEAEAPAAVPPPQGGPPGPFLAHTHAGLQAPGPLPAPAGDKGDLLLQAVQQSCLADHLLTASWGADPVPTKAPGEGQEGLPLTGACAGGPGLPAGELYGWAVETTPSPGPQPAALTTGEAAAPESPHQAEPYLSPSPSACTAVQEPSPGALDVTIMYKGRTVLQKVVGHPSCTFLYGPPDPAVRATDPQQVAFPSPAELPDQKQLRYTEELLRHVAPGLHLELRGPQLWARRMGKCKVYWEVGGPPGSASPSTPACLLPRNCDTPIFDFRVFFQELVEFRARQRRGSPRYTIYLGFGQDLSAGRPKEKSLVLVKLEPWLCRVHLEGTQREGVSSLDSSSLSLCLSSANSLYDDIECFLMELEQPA
Technique: protein-binding microarray
Form: double-stranded DNA, one strand shown
Matrix: in vitro
Concentration: 2200 nM top
Setting: 60-bp whole probe
Together with: salmon DNA 0.4 mg/ml
Relative to: random background probes
Reading: higher = stronger binding
Endpoint: fitted relative affinity
All sequences stand within: GCCTAGCAC … GTCTTGATTCGCTTGACGCTGCTG
TCACATTGCTTTCTCTTACTGTGCTAG: 2.91 z-score
AGTGCTATACCACTCTTGCTGTGCTAG: 1.05 z-score
ATATTTCCCAGAACTGGAGTGGTGCTA: 0.722 z-score
TTAGATCTCAGTATCGATTGGTGCTAG: 0.423 z-score
TAGAAATTTTTTTTCTAACTGTGCTAG: -0.401 z-score
AGTTCTCTAGAAATTCCCACGGTGCTA: 0.488 z-score
GACGATCTCGGTCTCGGGACGTGCTAG: 0.147 z-score
TTAGGACTGCTATTGCTTTAGTGCTAG: 0.00586 z-score
GACGAACTGGGGAATGGAGACGTGCTA: -0.00985 z-score
AGTTGTTTTAAATTCTAATTGTGCTAG: 0.258 z-score
GACGATTTCGGGTTTAGAGACGTGCTA: 3.91 z-score
TTAGCTCTCGGTCTCGGTTAGTGCTAG: 0.922 z-score
TTAGATTTCAATATCGATTAGTGCTAG: 0.228 z-score
TGCTCTTTCTACATAGATGTGTGCTAG: 1.89 z-score
GTAGGTATCCTTATCCTTTAGTGCTAG: 0.717 z-score
GACGGTTTCGTTTTCGGGACGTGCTAG: 12.5 z-score
TTAGGTATCGGGACGGGGTTAGTGCTA: 0.0833 z-score
TCAGTTTCCAGTATATTACTGTGCTAG: 2.99 z-score
CTAGGTTTCGGGACTGGGTTAGTGCTA: 3.14 z-score
TCAACAATGGCTTTGCCACTGTGCTAG: -0.198 z-score
TGAGATTTCAGACTGGATTAGTGCTAG: -0.375 z-score
TTAGGTCTCGGTTTCGGTTGGTGCTAG: 8.52 z-score
GACGATATCAGTCTCGAGGCGTGCTAG: 0.101 z-score
TTCCCTCTCCCCTCTTGTGCTGTGCTA: 1.92 z-score

Block 2
Target: Histone acetyltransferase KAT6A, winged helix 2, GST fusion (KAT6A, Homo sapiens, UniProt Q92794, residues 85-181)
Technique: protein binding microarray
Form: double-stranded DNA, one strand shown
Matrix: in vitro
Concentration: not given
Setting: 8-mer, flanks averaged, mean of 2 arrays, mostly near background
Relative to: not given
Reading: higher = stronger binding
Endpoint: E-score
Residues (chain): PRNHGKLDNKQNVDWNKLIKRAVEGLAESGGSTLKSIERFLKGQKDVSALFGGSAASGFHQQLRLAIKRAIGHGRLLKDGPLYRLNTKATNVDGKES
GCTCCAGC: 0.185
AAATAGGG: -0.0196
GTCGCAAA: 0.0383
ACCAAGCA: -0.0329
GTGGGTAA: -0.0775
TAAATAAA: 0.0325
CGCAGAAA: 0.136
CGGGCCGC: 0.222
CAACAGTA: -0.0285
ATATAGTC: 0.0514
GTCTGAAC: 0.0343
ATGTGTAC: -0.096
AGAGGAGC: 0.00681
TTGAGAAA: -0.0334
TATCTCCA: 0.127
ACTCATGA: -0.0201

Block 3
Target: RING finger protein unkempt homolog, zinc fingers 1-6, GST-SBP tag (UNK, Homo sapiens, UniProt Q9C0B0, residues 30-357)
Sequence of UniProt Q9C0B0 (30-357, looked up): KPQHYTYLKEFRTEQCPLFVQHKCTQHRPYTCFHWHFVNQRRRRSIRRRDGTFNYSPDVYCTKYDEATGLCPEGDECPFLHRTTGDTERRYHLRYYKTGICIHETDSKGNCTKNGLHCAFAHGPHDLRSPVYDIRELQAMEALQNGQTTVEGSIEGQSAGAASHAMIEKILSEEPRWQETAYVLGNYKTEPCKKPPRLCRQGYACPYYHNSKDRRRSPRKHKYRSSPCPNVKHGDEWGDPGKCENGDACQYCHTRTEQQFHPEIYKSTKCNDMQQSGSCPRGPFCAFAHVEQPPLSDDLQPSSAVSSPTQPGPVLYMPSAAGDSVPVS
Technique: RNA Bind-n-Seq
Form: RNA
Matrix: in vitro
Concentration: not given
Setting: RNA with constant flanks, human and mouse sites, ends assumed
Relative to: input RNA pool
Reading: higher = stronger binding
Endpoint: bound/input enrichment
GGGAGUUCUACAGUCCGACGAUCGCCUUAUUUGCCACGGAGACCUUUGCUAUGGGAAUUAACAUGCCAGCUAGAACUGUUUUAUUUACAAAUGCCCGCAAAUUUGAUGGGAAGGAUUUCCGAUGGAUUUCUUCUGGUGAAUACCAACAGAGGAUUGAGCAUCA: 0.543 ratio
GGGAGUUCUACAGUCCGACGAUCCUUAAAAACAAAGAUCCCAAGAUGGCUCGAGUUGCACUGGAAUCUCUCUACAGAUUACUUUGGGUUUACAUGAUUCGAAUUAAAUGUGAAAGCAACACAGCUACUCAGAGCCGACUUAUACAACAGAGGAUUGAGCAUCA: 0.219 ratio
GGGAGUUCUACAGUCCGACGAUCAGAGAAAUGGAUGGUGAUGUAGAGACCAUGCAGCAGACAAUAGAAGACUUGGAGGUAGCCAGUGACCCUUUAUAUCUGCCUGACCCGGAUCCCACCAAGUUUCCCAUCAAUCGAAAUUUACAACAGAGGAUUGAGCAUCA: 0.77 ratio
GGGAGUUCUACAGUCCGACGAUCAUGUCUGAGGGCUGUUUUUCAUUUGGCAUCUUGAUCACUGCAGAAGUGAAUUCACCAUGGCUGGAAUCUUACCUAUCUCAGGGUAUGGCCUCUCUUGUUCAAGCUUUCUACCUGACUGCUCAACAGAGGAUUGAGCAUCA: 0.204 ratio
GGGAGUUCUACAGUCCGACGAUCGGUGGUAAUUUUAAGGCCUAAAGAAAGCUGGGGUUAAUCCUGAAGCUAAAAGUAAAUGUUUCUUGAAUUGAUUUUGUUCUGUGGUACAAAUAACAUCUAUGAAUAUCAUAUCUGUAUAUACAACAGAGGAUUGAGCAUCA: 0.31 ratio
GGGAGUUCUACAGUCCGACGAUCAUGGAACAGAAACAUAGAGAGGAACUGGAGCAAUUGAAGCUGACUACUAAGGAGAAUAAGAUAGAUUCUGUUGCUGUUAACAUUUCAAACUUGGUGCUUGAGAAUCAGCCACCUCGGAUACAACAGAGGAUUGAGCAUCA: 0.388 ratio
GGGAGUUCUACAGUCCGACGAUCUUCUCCUCCUCUUCCUCCUCCUCCUCUGGUCCUAGGAGUUUUUACCCUCGCCAGGGCGCUACUAGCAAGUACCUGAUUGGAUGGAAAAAACCCGAAGGAACCAUAAACUCCGUGGGAUUUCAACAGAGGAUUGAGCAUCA: 0.29 ratio
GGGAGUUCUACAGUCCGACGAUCUCUGGUGGUGAAUCCUCCAUAGUCUGGAGAUCUCAGCCCUGCUGAGCUGAUGAUGCUGACUAUAGGAGAUGUUAUUAAACAACUGAUUGAAGCCCACGAGCAGGGGAAAGACAUCGAUCUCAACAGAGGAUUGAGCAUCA: 0.163 ratio
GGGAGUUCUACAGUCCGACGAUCGUCGACGUGUGCAGAAAUCCUGCUAGUCUGGUCCUUGUUUCCAUCUGGGUACCAGCUCCCUUUAGCCUUGCAGACGGUGGUGCGAGAGGCCAGCGGCCAGAAGAGACAGCUUGCUUCAAUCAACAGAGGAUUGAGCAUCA: 0.454 ratio
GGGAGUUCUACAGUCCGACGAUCAAUAAAUUGGAAUUUAAAAAUAUCGAUAUCACCAUGAUUUAAUCCAGAUCUGGGAUUAUGUAGCUAAACAUUGUGAUGAUUAUUAUUUAAAACCAUUAUUUAAUAAGAGUAAAAAUAUGUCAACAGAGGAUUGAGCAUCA: 0.606 ratio
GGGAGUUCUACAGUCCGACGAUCUUUUUUUUUUUUUUUCUUUAAGAAAACUUCAGUUUAACAGUUUCUGCAAUACAAGCUUGUGAUUUAUGCUUACUCUAAGUGGAAAUCAGGAUUGUUAUGAAGACUUAAGGCCCAGUAUUUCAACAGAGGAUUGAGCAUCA: 1.92 ratio

Block 4
Target: Ras GTPase-activating protein-binding protein 1, RRM domain (G3BP1, Homo sapiens, UniProt Q13283)
Sequence of UniProt Q13283 (whole entry, looked up): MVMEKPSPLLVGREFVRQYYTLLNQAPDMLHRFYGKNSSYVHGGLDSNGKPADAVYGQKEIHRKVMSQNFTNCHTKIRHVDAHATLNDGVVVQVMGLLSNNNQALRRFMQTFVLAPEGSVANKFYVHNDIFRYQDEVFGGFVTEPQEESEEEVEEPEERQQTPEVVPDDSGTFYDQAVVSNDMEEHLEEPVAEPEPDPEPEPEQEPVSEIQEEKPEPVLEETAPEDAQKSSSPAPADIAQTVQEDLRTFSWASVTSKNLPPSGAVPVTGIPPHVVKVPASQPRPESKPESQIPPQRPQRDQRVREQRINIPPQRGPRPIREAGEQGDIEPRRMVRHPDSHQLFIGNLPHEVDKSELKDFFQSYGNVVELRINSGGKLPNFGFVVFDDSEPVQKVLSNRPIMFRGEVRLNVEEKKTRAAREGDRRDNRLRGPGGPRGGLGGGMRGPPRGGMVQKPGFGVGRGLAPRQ
Technique: RNA Bind-n-Seq
Form: RNA
Matrix: in vitro
Concentration: 1 µM
Setting: whole 134-nt RNA, ends assumed
Together with: 150 mM KCl
Relative to: input library
Reading: higher = stronger binding
Endpoint: log2 enrichment
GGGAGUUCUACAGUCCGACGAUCUGUGAAAGAAAACCGAAGUUUUAAAUGACUUCUCAUGGUUAUUUUUUUUCCUUUCUCUUGCAGGACAUUGGGGACACAUUGAGCAGGUAUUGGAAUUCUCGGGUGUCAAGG: -0.39
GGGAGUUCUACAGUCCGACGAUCACCAUGCAGGUGGGCAUCUUUGGGAAGUGGGGCAAGGGGGGGAUAGGGAGGGGGGUAACACUUUGGGAACAGGUGGUCCCAGGUCGGUUCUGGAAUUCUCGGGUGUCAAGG: 0.438
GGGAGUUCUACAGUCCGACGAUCAGUCCUGUGCUACACAUCGUAUGUACCGAAUCGGGGAGGGGUUUUUGGGGUUUGGGGAAAGUAUUAUGUUACGCCGUUCGGAUCUGCACUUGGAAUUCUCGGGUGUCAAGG: 0.419
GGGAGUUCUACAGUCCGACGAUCACCAUGCAGGUGGGCAUCUUUGGGAAGUGGUGCAAGGGGGGGAUAGGGAGGGGGGUAACACUUUGGGAACAGGUGGUCCCAGGUCGUUUCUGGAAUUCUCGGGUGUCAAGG: -0.515
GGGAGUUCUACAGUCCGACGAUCUCAAGUCCUGUGCUACACAUCGUAUGUACCGAAUCGGGUUUGGGAAAGGGAGGGAAAGUAUUAUGUUACGCCGUUCGGAUCUGCACUUCCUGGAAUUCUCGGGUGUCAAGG: 0.744
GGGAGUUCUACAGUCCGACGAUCGCGGGAAGUAAAAACAAAUGGAAAUGCUUCGGAUAGUGGCAGGGGUGGGGGUUGCUAAGGAAAGGGUGGGAUGGGAGUGGGUAAAGAGUUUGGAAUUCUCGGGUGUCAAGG: 0.916
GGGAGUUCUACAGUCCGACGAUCAGUCCUGUGCUACACAUCGUAUGUACCGAAUCAAACCCCCAAAUUUUUAAACCCAAAAAAGUAUUAUGUUACGCCGUUCGGAUCUGCACUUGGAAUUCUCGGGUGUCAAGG: -0.394
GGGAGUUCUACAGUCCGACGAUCAGUCCUGUGCUACACAUCGUAUGUACCGAAUCGGGGAAAGGGGAAAAAGGGGUGGGGAAAGUAUUAUGUUACGCCGUUCGGAUCUGCACUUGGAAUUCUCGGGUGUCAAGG: 1.29
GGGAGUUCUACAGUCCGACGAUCCCUCAAGUCCUGUGCUACACAUCGUAUGUACCGAAUCGGGUGGGGUGGGUGGGAAAGUAUUAUGUUACGCCGUUCGGAUCUGCACUUCCAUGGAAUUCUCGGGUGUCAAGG: -0.405
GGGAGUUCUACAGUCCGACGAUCAGUCCUGUGCUACACAUCGUAUGUACCGAAUCAAACCCCCAAACCCCCAAACCCAAAAAAGUAUUAUGUUACGCCGUUCGGAUCUGCACUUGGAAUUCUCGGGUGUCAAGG: -0.192
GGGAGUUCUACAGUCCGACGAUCUUGUGGAAAGGAGGAGAACCCCUGCUGAAAUUCGAGAGGAGUUUGAGCGGCUGCAGAGAGAGAGAGAAGAGAGGAGAUUGCAGCAGCGAAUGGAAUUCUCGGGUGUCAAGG: 0.072
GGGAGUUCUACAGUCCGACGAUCGCAGGAAGUAAAAACAAAUGGAAAUGCUUCGGAUAGUUGCAGGGGUGGGGGUUGCUAAGGAAAGGGUGGGAUGGGAGUGGGUAAAGAGUUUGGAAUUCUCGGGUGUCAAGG: 0.573
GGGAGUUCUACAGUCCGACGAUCGUCCUGUGCUACACAUCGUAUGUACCGAAUCGGGAAAAAAAGGGAAAAAAAGGGUGGGAAAGUAUUAUGUUACGCCGUUCGGAUCUGCACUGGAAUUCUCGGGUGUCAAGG: 0.488
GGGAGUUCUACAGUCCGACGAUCCAAGUCCUGUGCUACACAUCGUAUGUACCGAAUCGGGGUUGGGGUUGGGGUUGGGGAAAGUAUUAUGUUACGCCGUUCGGAUCUGCACUUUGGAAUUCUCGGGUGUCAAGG: 1.04

A few entries again (block 1):
TTAGGTCTCGGTTTCGGTTGGTGCTAG: 8.52 z-score
AGTTCTCTAGAAATTCCCACGGTGCTA: 0.488 z-score
TCAACAATGGCTTTGCCACTGTGCTAG: -0.198 z-score
